{"data": "Published values gathered from unrelated publications", "note": "Every numbered part comes from another study and shows a few of its results, in no order."}
{"data": "Sample 1", "target": "Histone acetyltransferase KAT6A, winged helix 1, GST fusion (KAT6A, Homo sapiens, UniProt Q92794, residues 1-85)", "method": "protein binding microarray", "molecule type": "double-stranded DNA, one strand shown", "matrix": "in vitro", "concentration": "not given", "notes": "8-mer, flanks averaged, mean of 2 arrays, mostly near background", "relative to": "not given", "reading": "higher = stronger binding", "Target sequence (chain)": "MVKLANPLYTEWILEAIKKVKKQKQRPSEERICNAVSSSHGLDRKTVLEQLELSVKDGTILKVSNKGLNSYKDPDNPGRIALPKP"}
{"Strand": "ATCGGACA", "E-score": 0.00181}
{"Strand": "GTCAGGAA", "E-score": -0.128}
{"Strand": "CCGGCTCG", "E-score": 0.251}
{"Strand": "ATGTACCG", "E-score": 0.197}
{"Strand": "AGAGATAG", "E-score": -0.0484}
{"Strand": "ATTGTTCC", "E-score": 0.0612}
{"data": "Sample 2", "target": "RING finger protein unkempt homolog, zinc fingers 1-6, GST-SBP tag (UNK, Homo sapiens, UniProt Q9C0B0, residues 30-357)", "method": "RNA Bind-n-Seq", "molecule type": "RNA", "matrix": "in vitro", "concentration": "not given", "notes": "RNA with constant flanks, ends assumed", "relative to": "input RNA pool", "reading": "higher = stronger binding", "shared flanks, not repeated": "GGGAGUUCUACAGUCCGACGAUC … CAACAGAGGAUUGAGCAUCA", "Construct (chain)": "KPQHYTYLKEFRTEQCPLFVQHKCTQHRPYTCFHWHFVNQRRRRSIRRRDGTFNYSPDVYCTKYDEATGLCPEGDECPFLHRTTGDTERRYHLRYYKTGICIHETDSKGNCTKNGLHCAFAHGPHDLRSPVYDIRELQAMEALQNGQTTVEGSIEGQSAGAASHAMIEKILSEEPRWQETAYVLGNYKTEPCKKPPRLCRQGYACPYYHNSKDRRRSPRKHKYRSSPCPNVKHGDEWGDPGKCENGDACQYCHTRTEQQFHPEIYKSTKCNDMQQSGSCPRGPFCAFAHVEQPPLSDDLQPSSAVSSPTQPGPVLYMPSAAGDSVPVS"}
{"Strand": "UAUUUUUUAGAACAGCUAUUUGAUUUCUUCUCAAAGUCACUGCUGCCUUCUGAGUUGCCGUCCGCGCCUUCUCCAGCUUCCUGCAGCAUGACAGAAGAGAGAUACAGCAGUUGUUUCAAA", "bound/input enrichment [ratio]": 0.125}
{"Strand": "GGAGUUAAAGCUGUGUUUAUGAAUAAACAUGACUGGUAUGAAGAAUAUCCAACCACACCCCGCUCUUUUGUUUUAAAUGGCUUUAUGUAUUCUUUAAUUGGGCUGUAUGACUUAAAAGAA", "bound/input enrichment [ratio]": 0.445}
{"Strand": "CUCGGCAGCACUGCGCAGCUCUCGAAUCUCUCGUGCUUCAACCUUUCUUUUCUUAUUGUUAACCGGAAAAAAUCAACAUCUGUAAAUUAAGAAUACAGCAAUUAUCUGUACAGUACUGCA", "bound/input enrichment [ratio]": 0.0562}
{"Strand": "UUCAUUUUUUUUUUUAAGUGGUUCUCUGCCACAAGAAAGCUUGACACAUUCUUACCAAGAACCCGCCAGGCUUCAUACUUUCUGCUGUGUUCCCGAUAUCUAUGUACUGUGAAGAACCGU", "bound/input enrichment [ratio]": 0.902}
{"Strand": "CAGGAAGAUAUCGAUCCUCAGAAGGUUGCAUUUCUCCUCCACAAACAGUGGACUAUAUACCGUUUAACUCCCUUGUAUAAAUUCUCCUAUUCUAAUCUCAAAGACUAUUCUAGACUUCUA", "bound/input enrichment [ratio]": 0.711}
{"data": "Sample 3", "target": "Sal-like protein 4, full length isoform B (SALL4, Homo sapiens, UniProt Q9UJQ4-2, residues 1-616)", "method": "universal PBM", "molecule type": "double-stranded DNA, one strand shown", "matrix": "in vitro", "concentration": "not given", "notes": "8-mer, flanks averaged, mean of replicates", "reading": "higher = stronger binding"}
{"Strand": "AGGTACAA", "E-score": 0.118}
{"Strand": "AAGTCTAC", "E-score": -0.0428}
{"Strand": "CCGGGACG", "E-score": -0.253}
{"Strand": "AGAGCCAT", "E-score": -0.075}
{"Strand": "GTGGTGAA", "E-score": -0.0878}
{"data": "Other studies, line by line"}
{"Substance": "PhoQ, residues 284 288 289 292 302 303 SCCLKL", "target": "PhoP, residues 12 14 15 18 19 NFCKL (Escherichia coli, UniProt P23836)", "assay": "Sort-seq, refers to: YFP reporter", "test system": "E. coli", "conditions": "PhoQ-PhoP variant library, together with: 10 µM Mg2+", "how to read": "relative to: high Mg2+ state, higher = stronger signaling", "endpoint": "fold induction", "value": 10.7}
